Assay results gathered from unrelated publications.
Numbered parts are unrelated; each lists some results of a single study.

Sample 1
Target: Histone acetyltransferase KAT6A, winged helix 1, GST fusion (KAT6A, Homo sapiens, UniProt Q92794, residues 1-85)
Technique: protein binding microarray
Molecule type: double-stranded DNA, one strand shown
Matrix: in vitro
Tested at: not given
Setting: 8-mer, flanks averaged, mean of 2 arrays, mostly near background
Relative to: not given
Direction: higher = stronger binding
Target sequence (chain): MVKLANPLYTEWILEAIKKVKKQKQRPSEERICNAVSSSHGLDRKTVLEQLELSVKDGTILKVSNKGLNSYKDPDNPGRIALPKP
Strand | E-score
ACTGTGTG | -0.183
AGAGGCCT | -0.183
GGGCAACA | 0.029
CGGCCCCG | 0.412
CTAAGTAA | -0.000375
CCTTACCC | 0.00251
CCTCTTTA | -0.126
CGAACAAC | -0.171

Sample 2
Target: RNA binding protein fox-1 homolog 2, RRM domain, GST-SBP tag (RBFOX2, Homo sapiens, UniProt O43251-10, residues 100-194)
Technique: RNA Bind-n-Seq
Molecule type: RNA
Matrix: in vitro
Tested at: 365 nM
Setting: natural RNA segment, single round, ends assumed
Relative to: no-protein control
Direction: higher = stronger binding
Construct (chain): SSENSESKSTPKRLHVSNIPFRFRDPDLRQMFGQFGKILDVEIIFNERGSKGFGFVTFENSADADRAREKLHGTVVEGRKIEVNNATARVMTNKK
Strand | RBNS enrichment (R)
GGGAGUUCUACAGUCCGACGAUCGCCCGCAAACCUGUGAACUUUCGCCAGUGCCUGGCCUCAGACUCUGUGGGCUCUGCGUGGCCGGGCCUUGCUGGAGGCCCAGUGGGUUUUCUGGGCAAAGCAUGGCCCCUUGGAAUUCUCGGGUGCCAA | 0.31
GGGAGUUCUACAGUCCGACGAUCCAUAAACCUUAAUCUGGAGAAGAAGUUUUGAUGCUGGAAGUGAGCAUCAGCUAUUGAGAUAGGCCUGCUCAGUUAAUAUGGCUUCCUGGCCAGUAGGCAUUCUGUACCAAUGGAAUUCUCGGGUGCCAA | 0.495
GGGAGUUCUACAGUCCGACGAUCUUCUUUCUUGUAGUAGUUGAGACAGAGCUCUUAUUUACUGUAAUGCUAAAUGAAACAGUGGCUUAAAUAUUUUAAUGGGAAAAGAGAACACAGUGCGUUCCAUAUUGUGAUGGAAUUCUCGGGUGCCAA | 2.01
GGGAGUUCUACAGUCCGACGAUCACUUUUAACCUGGUUUUGCUUUUGCUUUUCCUGACUCCCUUUGCUCAGAGUCAGUUGCACACCAGUAGGAUGGCAUGCUACGAUCAGUUUCUGUCCUGAAAGCUUUGCCUUGGAAUUCUCGGGUGCCAA | 5.57

Sample 3
Target: Interferon regulatory factor 7, full length, phosphomimetic (IRF7, Homo sapiens, UniProt Q92985, residues 1-503, S471D/S472D/S475D/S476D/S477D/S483D/S484D/S487D)
Technique: protein-binding microarray
Molecule type: double-stranded DNA, one strand shown
Matrix: in vitro
Tested at: 2200 nM top
Setting: 60-bp whole probe
Added: salmon DNA 0.4 mg/ml
Relative to: random background probes
Direction: higher = stronger binding
Shared flanks, not repeated: GCCTAGCAC … GTCTTGATTCGCTTGACGCTGCTG
Residues (chain): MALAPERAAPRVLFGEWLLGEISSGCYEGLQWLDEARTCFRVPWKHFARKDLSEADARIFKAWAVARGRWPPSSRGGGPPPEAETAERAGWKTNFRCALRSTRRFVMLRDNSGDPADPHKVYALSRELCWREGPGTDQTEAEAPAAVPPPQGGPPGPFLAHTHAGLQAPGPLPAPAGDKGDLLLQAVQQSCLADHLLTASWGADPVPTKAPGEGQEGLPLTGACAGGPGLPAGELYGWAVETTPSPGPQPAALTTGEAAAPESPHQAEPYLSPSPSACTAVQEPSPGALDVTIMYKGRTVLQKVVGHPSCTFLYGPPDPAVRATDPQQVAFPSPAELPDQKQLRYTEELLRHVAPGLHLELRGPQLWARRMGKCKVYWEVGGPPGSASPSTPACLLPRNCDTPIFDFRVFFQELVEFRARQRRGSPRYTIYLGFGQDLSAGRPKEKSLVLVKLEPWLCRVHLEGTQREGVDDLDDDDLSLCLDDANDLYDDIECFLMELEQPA
Strand | fitted relative affinity
TTAAGTTTCCTTCTCCTTTAGTGCTAG | 2.8 z-score
TAATTTTCATTTTCCAAATGGTGCTAG | 7.08 z-score
GACGATTTCGGGTCTGGAGACGTGCTA | 3.4 z-score
GACGGTATCGCTTTCGGGACGTGCTAG | 4.3 z-score
GACGCTTTCGGTATCGGGACGTGCTAG | 8.43 z-score

Single results of other studies
Substance | target | assay | system | conditions | scale | endpoint | value
PhoQ, residues 284 288 289 292 302 303 SIHLQL | PhoP, residues 12 14 15 18 19 NYFTV (Escherichia coli, UniProt P23836) | Sort-seq, item: YFP reporter | E. coli | PhoQ-PhoP variant library, added: 10 µM Mg2+ | relative to: high Mg2+ state, higher = stronger signaling | fold induction | 19

A few entries again (sample 2):
Strand | RBNS enrichment (R)
GGGAGUUCUACAGUCCGACGAUCUUCUUUCUUGUAGUAGUUGAGACAGAGCUCUUAUUUACUGUAAUGCUAAAUGAAACAGUGGCUUAAAUAUUUUAAUGGGAAAAGAGAACACAGUGCGUUCCAUAUUGUGAUGGAAUUCUCGGGUGCCAA | 2.01
GGGAGUUCUACAGUCCGACGAUCGCCCGCAAACCUGUGAACUUUCGCCAGUGCCUGGCCUCAGACUCUGUGGGCUCUGCGUGGCCGGGCCUUGCUGGAGGCCCAGUGGGUUUUCUGGGCAAAGCAUGGCCCCUUGGAAUUCUCGGGUGCCAA | 0.31
